Published values collected from several papers.
Parts stem from different laboratories: compare values within a part only. Changes are numbered by the printed parent chain.

Series 1
Target: UBE2U UBC core domain (UniProt Q5VVX9)
Method: yeast two-hybrid
Sample: yeast
Notes: mostly zero background
Baseline: not given
Direction: higher = stronger interaction
B1: RNF103 RING domain (UniProt O00237); chain WPADMLHCTECVVCLENFENGCLLMGLPCGHVFHQNCIVMWLAGGRHCCPVCRWPSYKKKQPY
B2: MID2 RING domain (UniProt Q9UJV3); chain KMETLESELTCPICLELFEDPLLLPCAHSLCFSCAHRILVSSCSSGESIEPITAFQCPTCRYVISLNHRGL
B3: MARCHF1 RING domain (UniProt Q8TCQ1); chain TAPRSQSRLSVCPSTQDICRICHCEGDEESPLITPCRCTGTLRFVHQSCLHQWIKSSDTRCCELCKYDFIMETKLKPLRKWE
B4: ZNRF4 RING domain (UniProt Q8WWF5); chain VRTFTWHNDLCAICLDEYEEGDQLKILPCSHTYHCKCIDPWFSQAPRRSCPVCKQSVAATEDSF
B5: ARIH2 RING domain (UniProt O95376); chain HVPTSHPPHHCAVCMQFVRKENLLSLACQHQFCRSCWEQHCSVLVKDGVGVGVSCMAQDCPLRTPEDFVF
B6: TRIM11 RING domain (UniProt Q96F44); chain LSTNLQEEATCAICLDYFTDPVMTDCGHNFCRECIRRCWGQPEGPYACPECRELSPQRNLRP
B7: NFX1 RING domain (UniProt Q12986); chain IEQLTTEKYECMVCCELVRVTAPVWSCQSCYHVFHLNCIKKWARSPASQADGQSGWRCPACQNVSAHVPNTY
B8: RNF186 RING domain (UniProt Q9NXI6); chain HSGSTECDLECLVCREPYSCPRLPKLLACQHAFCAICLKLLLCVQDNTWSITCPLCRKVTAVPGGLI
Construct (chain): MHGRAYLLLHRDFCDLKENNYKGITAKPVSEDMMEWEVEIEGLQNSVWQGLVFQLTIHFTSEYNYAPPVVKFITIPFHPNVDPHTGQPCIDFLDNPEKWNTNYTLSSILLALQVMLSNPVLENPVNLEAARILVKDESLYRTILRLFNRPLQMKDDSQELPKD
| Molecule | lacZ reporter activity |
| --- | --- |
| B1 (RNF103 RING domain) | 14800 |
| B2 (MID2 RING domain) | 11600 |
| EIKEYKARLTCPCCNTRKKDAVLTKCFHVFCFECVRGRYEARQRKCPKCNAAFGAHDFHR (RNF40 RING domain (UniProt O75150)) | 0 |
| B3 (MARCHF1 RING domain) | 0 |
| B4 (ZNRF4 RING domain) | 0 |
| B5 (ARIH2 RING domain) | 16400 |
| B6 (TRIM11 RING domain) | 0 |
| ASPKIFQKTKCSICNSALELPSVHFLCGHSFHQHCFESYSESDADCPTCLPENRKVMDMI (VPS11 RING domain (UniProt Q9H270)) | 2790 |
| B7 (NFX1 RING domain) | 0 |
| LEALSSDFLACKICLEQLRAPKTLPCLHTYCQDCLAQLADGGRVRCPECRETVPVPPEGV (TRIM56 RING domain (UniProt Q9BRZ2)) | 0 |
| DDVLTKDAGECVICLEELLQGDTIARLPCLCIYHKSCIDSWFEVNRSCPEHPAD (ZNRF1 RING domain (UniProt Q8ND25)) | 10900 |
| B8 (RNF186 RING domain) | 16100 |

Series 2
Target: ABI1, truncated, D143A, DHFR fusion (Arabidopsis thaliana)
Method: DHFR PCA, deep sequencing
Sample: yeast
Notes: methotrexate growth selection, single substitutions
Together with: (+)-ABA 0.0091 µM
Baseline: wild-type fitted maximum
Direction: higher = stronger binding
Parent: PYL1, truncated, DHFR fusion (Arabidopsis thaliana); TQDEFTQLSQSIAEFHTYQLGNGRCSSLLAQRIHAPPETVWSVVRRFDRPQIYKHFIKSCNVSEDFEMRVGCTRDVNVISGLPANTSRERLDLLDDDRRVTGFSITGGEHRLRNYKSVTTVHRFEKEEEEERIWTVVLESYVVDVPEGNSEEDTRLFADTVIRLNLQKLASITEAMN
| Variant | relative binding score [%] |
| --- | --- |
| E127W | 11 |
| D96A | -4.26 |
| E89A | 1.35 |
| R49W | -8.42 |
| E174I | -2.36 |
| V136A | -4.08 |
| R24A | 5.47 |
| V143I | 0.854 |
| D3A | 26.3 |
| D3H | 20.3 |
| E64H | 25.6 |
| E152Y | 4.93 |
| I52S | 7.1 |
| N77D | 29.9 |
| T6E | 45.9 |
| I79N | 8.78 |
| H122L | -1.89 |
| H34W | 10.8 |

Series 3
Target: Interferon regulatory factor 5, full length, phosphomimetic (IRF5, Homo sapiens, UniProt Q13568-2, residues 1-514, K96S/S451D/S453D/S456D/S462D)
Method: protein-binding microarray
Molecule type: double-stranded DNA, one strand shown
Sample: in vitro
Concentration: 250 nM
Notes: 60-bp whole probe
Together with: salmon DNA 0.4 mg/ml
Baseline: random background probes
Direction: higher = stronger binding
All sequences stand within: GCCTAGCAC … GTCTTGATTCGCTTGACGCTGCTG
| Strand | log fluorescence [z-score] |
| --- | --- |
| GACGGTTTCGGGATTGGGGACGTGCTA | 5.78 |
| TTAGAACTGGGTTATCGATTAGTGCTA | 2.15 |
| GAGGGTTCCCTTTTCCTGACGTGCTAG | 0.114 |
| TTAGGTATCGACTTTCGTTTAGTGCTA | 8.2 |
| GACAGACTGGGTTTCGGGACGTGCTAG | 2.68 |
| CACGGTATCCTTTTCCTGACGTGCTAG | 0.133 |
| GACGGTATCCGTATCCTGACGTGCTAG | 0.205 |
| GTCGGTATCGGGTTTCGGGACGTGCTA | 5.55 |
| GACGGTCTCAGTATCGAGACGTGCTAG | 1.34 |
| GACGGACTGCTTATCCTCACGTGCTAG | -0.23 |
| ATGAGCCTCTGTTTTGAGCAGTGCTAG | -0.261 |
| GACGAACTCGGGTATCGAGACGTGCTA | 0.303 |
| GACGGACTGCGTTTCGGGACGTGCTAG | 1.18 |
| GACTGTATCCTACTGCTGACGTGCTAG | -0.0428 |
| TTAGGACTGGACACTGGGCTAGTGCTA | -0.459 |
| TTCGGTTCCCTTTTCCTTTAGTGCTAG | 1.77 |
| GACGATCTCAGTGTCGAGACGTGCTAG | -0.163 |
| GCGGTTGGATCACAAGGTCAGTGCTAG | -0.458 |
| ATAGGTTTCCTTATCCTTTAGTGCTAG | 0.83 |
| CTGTTTTTCCCCTGCACTCAGTGCTAG | 0.86 |
| TTAGGTATCGGACTGGGTCAGTGCTAG | 1.5 |
| GGGGAGCAGGGTGGCCCTGTGTGCTAG | -0.907 |
| TTACATATGTTTTTCATTTTGTGCTAG | 1.85 |
| TTAGGTATCCTTATCCTTTTGTGCTAG | 0.349 |

Series 4
Target: CCNE1, cyclin fold, Cln2 fusion (human)
Method: yeast growth competition, sequencing
Sample: yeast
Notes: weak parent motif
Baseline: not given
Direction: higher = stronger binding
Parent: SAMHD1 docking peptide (human); ASKSRVQLFKDDP
| Variant | normalised enrichment score |
| --- | --- |
| Q7L | 0.191 |
| R5N | -0.381 |
| S4E | -0.155 |
| R5A | 0.0712 |
| D12A | 0.38 |
| V6Y | 0.16 |
| D12G | 0.293 |
| D11L | -0.109 |
| F9V | 0.114 |
| S4T | 0.401 |
| V6K | 0.898 |
| R5E | 0.0426 |
| D12N | 0.252 |
| K10I | 0.166 |

Series 5
Target: Histone acetyltransferase KAT6A, winged helix 2, GST fusion (KAT6A, Homo sapiens, UniProt Q92794, residues 85-181)
Method: protein binding microarray
Molecule type: double-stranded DNA, one strand shown
Sample: in vitro
Concentration: not given
Notes: 8-mer, flanks averaged, mean of 2 arrays, mostly near background
Baseline: not given
Direction: higher = stronger binding
Construct (chain): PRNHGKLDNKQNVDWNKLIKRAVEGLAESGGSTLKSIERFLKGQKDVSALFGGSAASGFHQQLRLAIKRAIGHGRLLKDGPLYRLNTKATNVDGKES
| Strand | E-score |
| --- | --- |
| AGCCAATG | -0.0422 |
| GTTTACCA | 0.00951 |
| CACGATAG | -0.086 |
| CCGTTCGA | 0.149 |
| CTCCATAC | -0.105 |
| AGGTATAT | -0.064 |
| TCTAAAGA | 0.226 |
| TCATCTAA | 0.0346 |
| CCACTACC | -0.146 |
| CACAGCAC | -0.0375 |
| CTGACGTA | -0.132 |
| GGGTAGAA | 0.0215 |
| CTACTGCC | -0.13 |
| CTGAGTTC | 0.0524 |
| AATTGAGT | -0.0411 |
| ACCTACCT | -0.115 |
| CTCAGGCA | 0.116 |
| AGGTAGAC | -0.0997 |
| CATAGAAA | 0.236 |
| TAAAAAGA | 0.053 |
| CTGACTAC | -0.231 |
| GAAATTTC | -0.106 |
| CCGGCCTA | 0.178 |
| ATTAATCA | -0.00813 |
| CCACCGTC | -0.115 |
